Assay results from different studies.
Each line is one published result; not all experiments were run side by side.

Structure (SMILES) | assay | system | setting | endpoint | result
Cc1cc(Nc2ccc(S(F)(F)(F)(F)F)cc2)n2nc(C(C)(F)F)nc2n1 |  | Plasmodium vivax malaria patients | oral, 800 mg | adverse event Chills | 0%
C[C@H]1CNCCCN1S(=O)(=O)c1cccc2cncc(F)c12 | item: Pyrexia | healthy adult men | topical ocular, 1 drop per eye twice daily, 8 days | adverse events | 5.6%
CCO[C@H]1CCN(Cc2c(OC)cc(C)c3[nH]ccc23)[C@H](c2ccc(C(=O)O)cc2)C1 | item: dry throat | PNH patients with active haemolysis | oral, 100 mg, extension phase | adverse event incidence | 0%
CC(=O)N(C)[C@H]1CCN(C(=O)c2cnc3c(c2)C[C@](C)(c2ccc(F)cc2)N3)C1 | item: Sleeplessness | human | oral, 15 mg once daily | adverse event duration | 4 days
Cc1cc(C)c(CNC(=O)c2cc(Cl)c3c(c2C)O[C@@](C)([C@H]2CC[C@H](N(C)C)CC2)O3)c(=O)[nH]1 |  | relapsed/refractory NHL patients | oral, 200 mg once daily, onset after cycle 1 day 1 | adverse event Dizziness | 16.7%
CC#CC(=O)N[C@H]1CCCN(c2c(F)cc(C(N)=O)c3[nH]c(C)c(C)c23)C1 |  | healthy volunteers | oral, 0.3 mg once daily, 14 days, MAD phase I | adverse events | 16.7%
C=CC(=O)N1CCC(c2ccc(C(N)=O)c(-c3ccc(Oc4ccccc4)cc3)n2)CC1 |  | relapsed/refractory mantle cell lymphoma patients | oral, 100 mg twice daily, part, CTCAE v4.03 | adverse event rate | 62.5%
CC(C)C[C@H](NC(=O)CNC(=O)c1cc(Cl)ccc1Cl)B(O)O |  | newly diagnosed multiple myeloma patients | oral, dose not given, Constipation, maintenance | adverse events grade 3 | 0%

Repeated from above:
Structure (SMILES) | assay | system | setting | endpoint | result
CC(C)C[C@H](NC(=O)CNC(=O)c1cc(Cl)ccc1Cl)B(O)O |  | newly diagnosed multiple myeloma patients | oral, dose not given, Constipation, maintenance | adverse events grade 3 | 0%
